# Results gathered from unrelated publications.
# Numbered parts are unrelated; each lists some results of a single study. Changes are numbered by the printed parent chain.

# Study 1
# Target: PABPC1L2, full length, GST fusion (mouse, UniProt A0ABA7IW68)
# Method: RNAcompete
# Molecule type: RNA
# Medium: in vitro
# Concentration: 20 nM
# Setting: 7-mer, probes averaged, single round
# Baseline: mean of 7-mers
# Reading: higher = stronger binding
# Residues (chain): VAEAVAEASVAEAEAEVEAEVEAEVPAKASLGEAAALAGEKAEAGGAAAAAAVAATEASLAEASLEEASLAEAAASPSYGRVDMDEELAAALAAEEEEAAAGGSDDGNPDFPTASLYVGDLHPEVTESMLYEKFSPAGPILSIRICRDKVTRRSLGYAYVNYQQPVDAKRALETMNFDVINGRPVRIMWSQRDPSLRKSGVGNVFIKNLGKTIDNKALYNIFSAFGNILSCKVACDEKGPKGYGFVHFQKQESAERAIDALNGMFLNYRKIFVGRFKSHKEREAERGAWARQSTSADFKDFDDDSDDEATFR
Sequence,7-mer Z-score
UAAAAGG,1.29
GGUUAGC,-0.0935
UGUCUUG,-0.38
CUGGGUA,-0.0138
GUAAUAG,-0.0699
CUGAAAU,-0.0772
UCAGGCU,-0.164
CUGCUCA,-0.338
AGCCGGC,-0.313
UCAUAGA,-0.0409
UGGGUGU,-0.0482
UUAGGUC,-0.0826
AGUGCUU,-0.202
AUCUUCG,-0.278
AUCUAUA,0.0189
GCAUUUU,-0.171
UGUGGAA,0.236
UAGUAAA,0.466
GCGAAAA,5.09
GGUGGUU,-0.193

# Study 2
# Target: Histone acetyltransferase KAT6A, winged helix 2, GST fusion (KAT6A, Homo sapiens, UniProt Q92794, residues 85-181)
# Method: protein binding microarray
# Molecule type: double-stranded DNA, one strand shown
# Medium: in vitro
# Concentration: not given
# Setting: 8-mer, flanks averaged, mean of 2 arrays, mostly near background
# Baseline: not given
# Reading: higher = stronger binding
# Residues (chain): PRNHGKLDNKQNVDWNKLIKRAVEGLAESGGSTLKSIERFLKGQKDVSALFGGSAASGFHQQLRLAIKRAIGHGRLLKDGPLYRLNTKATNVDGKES
Sequence,E-score
GGCGAGGA,0.167
CTTTCCTA,-0.0716
ACATACCC,-0.075
AAAATGCG,0.047
CCCATGCA,-0.0406
TAAAATCA,0.159
CGGCTGCA,0.155
CATCGGGG,0.0234
CCAACCGC,0.093
AGACTCGG,-0.204
ATGGCTCG,0.0406
GAGCACCC,0.0739
ACATTGAA,0.0073
AAGTTAGC,-0.0428
CAACATCA,0.00446
ATGAGAAG,-0.0207
ATGGGTTC,-0.144
GCCCTGGA,-0.011
CCGAGTCG,0.109
ACACTCGC,0.0493
CAGAGAAC,-0.0114
CCGCTTCA,0.0983
CTGCATCA,0.101
CCAAACAC,0.017
ATGACTGG,-0.255

# Study 3
# Target: CCND1, cyclin fold, Cln2 fusion (human)
# Method: yeast growth competition, sequencing
# Medium: yeast
# Setting: weak parent motif
# Baseline: not given
# Reading: higher = stronger binding
# Starting sequence: ORC1 docking peptide (human); PRARKRLELGNLG; partner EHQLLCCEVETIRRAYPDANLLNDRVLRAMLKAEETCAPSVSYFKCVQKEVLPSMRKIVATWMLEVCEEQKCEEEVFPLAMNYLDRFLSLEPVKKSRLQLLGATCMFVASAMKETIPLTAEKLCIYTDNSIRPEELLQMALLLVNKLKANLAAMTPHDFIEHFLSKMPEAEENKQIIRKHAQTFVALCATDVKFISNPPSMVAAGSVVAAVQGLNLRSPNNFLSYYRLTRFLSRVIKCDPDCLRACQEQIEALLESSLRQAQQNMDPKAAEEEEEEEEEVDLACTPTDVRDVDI
Variant,normalised enrichment score
PRARKRLELGNFG [L12F],0.148
PRARTRLELGNLG [K5T],-0.00319
PRARKRLELENLG [G10E],0.0437
PRARKRLELYNLG [G10Y],1.3
PRARKMLELGNLG [R6M],0.336
VRARKRLELGNLG [P1V],-0.674
PRARKRLELGKLG [N11K],-0.221
PRARKRLELGYLG [N11Y],0.599
PRARKRLELGNLN [G13N],-0.229
PRARKKLELGNLG [R6K],-0.319
PRARKRLEDGNLG [L9D],-0.0966
PRAGKRLELGNLG [R4G],0.202
PRARKRLELGNAG [L12A],0.172
PRALKRLELGNLG [R4L],-0.0128
LRARKRLELGNLG [P1L],-0.428
PRARKRLEKGNLG [L9K],-0.2

# Study 4
# Target: Interferon regulatory factor 5, full length, phosphomimetic (IRF5, Homo sapiens, UniProt Q13568-2, residues 1-514, S451D/S453D/S456D/S462D)
# Method: protein-binding microarray
# Molecule type: double-stranded DNA, one strand shown
# Medium: in vitro
# Concentration: 940 nM top
# Setting: 60-bp whole probe
# Added: salmon DNA 0.4 mg/ml
# Baseline: random background probes
# Reading: higher = stronger binding
# Constant ends, left off below: GCCTAGCAC … GTCTTGATTCGCTTGACGCTGCTG
Sequence,fitted relative affinity [z-score]
TTACAATTTGCTTTAGTCATGTGCTAG,0.299
TTAGGTATCCTTCTCCGTTAGTGCTAG,0.715
GCCGGTTCCGGTTTCGGGACGTGCTAG,6.27
GACGGAATCGACTTTCGGGACGTGCTA,1
TTAGGTCTTGGACTGGGTTAGTGCTAG,-0.417
GACGATATGGGGACTGGAGACGTGCTA,-0.346
TTAGATATCAGTTGCGATTAGTGCTAG,0.973
GACGGACTGGTTATCGGGACGTGCTAG,0.0242
TTAGGACTGGGCCTCGGTTAGTGCTAG,-0.711
GACGGTTCCGGTATCGGGACGTGCTAG,4.28
TTAGGTTCCGGACTGGGTTAGTGCTAG,0.292
TTAGGTATAGGGTTTCGGTTAGTGCTA,4.67
CTCCTCTCTGGGTCAAAGGTGTGCTAG,-0.0698
TTAGGTATCCAACTGCTTTAGTGCTAG,-0.15
TTAGGTTTCGGTTCCGTTTAGTGCTAG,15.5
CTCGGGACAGGCACTCTACGGTGCTAG,-0.467
GAGGGTCTCCTTATCCTGACGTGCTAG,0.0798
TTAGATTTCGGGACTGGATAAGTGCTA,0.856

# Study 5
# Target: Krueppel-like factor 3, full length (KLF3, Homo sapiens, UniProt P57682, residues 1-345)
# Sequence of UniProt P57682 (whole entry, looked up): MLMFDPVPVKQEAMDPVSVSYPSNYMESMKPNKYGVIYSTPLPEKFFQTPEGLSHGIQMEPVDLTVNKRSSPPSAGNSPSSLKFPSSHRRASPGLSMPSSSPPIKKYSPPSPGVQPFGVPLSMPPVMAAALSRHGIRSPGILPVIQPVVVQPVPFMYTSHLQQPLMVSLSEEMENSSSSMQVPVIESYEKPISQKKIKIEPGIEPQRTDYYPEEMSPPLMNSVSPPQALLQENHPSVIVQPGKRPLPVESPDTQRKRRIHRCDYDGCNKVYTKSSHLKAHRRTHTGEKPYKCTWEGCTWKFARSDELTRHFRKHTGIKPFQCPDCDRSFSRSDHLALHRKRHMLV
# Method: protein-binding microarray
# Molecule type: hairpin DNA
# Medium: in vitro
# Concentration: not given
# Setting: whole hairpin DNA, median over replicate spots
# Baseline: not given
# Reading: higher = stronger binding
Sequence,median fluorescence [a.u.]
GAGGCCGACCGCGCCCTGCCTCCTGGCAGGGCGCGGTCGGCCTCACACTC,9080
GAGGCCGACCACCCCCAGCCTCCTGGCTGGGGGTGGTCGGCCTCACACTC,8650
GAGGCCGACTACGCCCAGCCTCCTGGCTGGGCGTAGTCGGCCTCACACTC,7690
GAGGCCCGCCGCGCCCAGCCTCCTGGCTGGGCGCGGCGGGCCTCACACTC (5mC at 7),8520
GAGGCCGACCGCGCCCAGCCTCCTGGCTGGGCGCGGTCGGCCTCACACTC (5mC at 9),8550
GAGGCCGACCGCGCCCGGCCTCCTGGCCGGGCGCGGTCGGCCTCACACTC (5mC at 16),8910
GAGGCCGGCCGCGCCCAGCCTCCTGGCTGGGCGCGGCCGGCCTCACACTC,8650
GAGGCCGACCACGCCGAGCCTCCTGGCTCGGCGTGGTCGGCCTCACACTC (5mC at 29),9460
GAGGCCGACCGCGGCCAGCCTCCTGGCTGGCCGCGGTCGGCCTCACACTC,8310
GAGGCCGACCACGACCAGCCTCCTGGCTGGTCGTGGTCGGCCTCACACTC,8800
GAGGCCGACCGCGCCCAGCCTCCTGGCTGGGCGCGGTCGGCCTCACACTC (5mC at 34),8830
GAGGCCGACCGCGCCTAGCCTCCTGGCTAGGCGCGGTCGGCCTCACACTC,8260
GAGGCCGACCGCGCCCAGCCTCCTGGCTGGGCGCGGTCGGCCTCACACTC (5mC at 10 32 34),8530
GAGGCCGCCCGCGCCCAGCCTCCTGGCTGGGCGCGGGCGGCCTCACACTC (5mC at 8),8780
GAGGCCGACGACGCCCAGCCTCCTGGCTGGGCGTCGTCGGCCTCACACTC (5mC at 35),8260
GAGGCCGACCACGCACAGCCTCCTGGCTGTGCGTGGTCGGCCTCACACTC,9780
GAGGCCGACCACGCCCAGCCTCCTGGCTGGGCGTGGTCGGCCTCACACTC (5mC at 16),9800
GAGGCCGACCACACCCAGCCTCCTGGCTGGGTGTGGTCGGCCTCACACTC,8610

# Study 6
# Target: Max-binding protein MNT, bHLH-zipper, MAX partner unstated (MNT, Homo sapiens, UniProt Q99583, residues 220-300)
# Method: protein-binding microarray
# Molecule type: double-stranded DNA, one strand shown
# Medium: in vitro
# Concentration: not given
# Setting: k-mer, scored over probes, only values ≥0.25
# Reading: higher = stronger binding
# Construct (chain): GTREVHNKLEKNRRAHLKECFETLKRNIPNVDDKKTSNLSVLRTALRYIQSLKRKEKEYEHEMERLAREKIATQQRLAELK
Sequence,E-score
CGCGGGTA,0.284
ATGCGGTA,0.327
CGTGCCAC,0.39
ACACGTGG,0.496
CCCTCCCC,0.319
AGATGGGG,0.282
CATGTGAC,0.476
GCGTGGAA,0.396
ACAGCACG,0.347
GAAAGCAC,0.281
GGTGGCGA,0.294
ATGCGGAG,0.27
CCGGCACG,0.38
GCAGTCAC,0.254
AGCACGCT,0.411
CCCGTGCA,0.309
AGCCACGC,0.395
ACGTGTTA,0.453
AGTACACG,0.366
GCACAGCC,0.268
CGTGGTAA,0.403
ACCACGCC,0.382
CGTGAACC,0.257
ACGTGATA,0.445
CACCATGG,0.291

# Excerpt of the above (study 3):
Variant,normalised enrichment score
PRARKRLELGKLG [N11K],-0.221
PRARKRLELGYLG [N11Y],0.599
PRARKRLELGNLN [G13N],-0.229
PRARKKLELGNLG [R6K],-0.319
PRARKRLEDGNLG [L9D],-0.0966
PRAGKRLELGNLG [R4G],0.202
PRARKRLELGNAG [L12A],0.172
PRALKRLELGNLG [R4L],-0.0128
LRARKRLELGNLG [P1L],-0.428
